Experimental data collected from several papers.
Lines come from different studies, so protocols differ.

For `COc1ccc2nc(-c3ccc(N(C)C)cc3)sc2c1`, the Stokes shift was 131 nm (PBS; free dye).
For `COC(=O)c1ccccc1-c1c2ccc(=O)cc-2oc2c1ccc1cccc(O)c12`, the Stokes shift was 161 nm (12.5 mM aqueous NaOH; pH 12.1, 10% DMSO).
With `CC1(C)C(=CC=C2CCCC(C=CC3=[N+](CCC[N+](C)(C)C)c4ccc(S(=O)(=O)O)cc4C3(C)C)=C2SCCOCCOCCC(=O)O)N(CCC[N+](C)(C)C)c2ccc(S(=O)(=O)O)cc21` the Stokes shift was 30 nm (HEPES buffer with FBS; pH 7.4, 50 mM HEPES, 30% FBS).
For `CC1(C)C(/C=C/C2=C(Cl)C(=C/C=C3/N(CCCCCC(=O)O)c4ccccc4C3(C)C)/C[N+](C)(C)C2)=[N+](CCCCCC(=O)O)c2ccccc21`, the Stokes shift was 28 nm (methanol).
For `CCCCN1C(=O)c2cccc3c(NCCCCN4CCOCC4)ccc(c23)C1=O`, the Stokes shift was 80 nm (dichloromethane).
`Nc1cccc2ccc(/C=C/C(=O)c3ccc(C(F)(F)F)cc3)cc12` has a Stokes shift of 137 nm (toluene; 20 °C).
With `CCCCN1C(=O)c2cccc3c(NCCCCCCCCCCN4CCOCC4)ccc(c23)C1=O` the Stokes shift was 107 nm (water; pH 6.0).
The Stokes shift of `COC(=O)c1ccccc1-c1c2ccc(=O)cc-2oc2c1ccc1cccc(N)c12` is reported as 172 nm (aqueous HCl 10% DMSO; pH 1.9).
`Nc1ccc2cc(/C=C/C(=O)c3ccc(O)cc3)ccc2c1` has a Stokes shift of 110 nm (toluene; 20 °C).
